Results of several laboratories.
Each numbered part is a random draw from the data of one study; scales do not carry over between parts. Positions count from the first letter of the parent shown.

Series 1
Target: ABI1, truncated, D143A, DHFR fusion (Arabidopsis thaliana)
Technique: DHFR PCA, deep sequencing
Matrix: yeast
Setting: methotrexate growth selection, single substitutions
Together with: (+)-ABA 0.0091 µM
Reference: wild-type fitted maximum
Direction: higher = stronger binding
Starting sequence: PYL1, truncated, DHFR fusion (Arabidopsis thaliana); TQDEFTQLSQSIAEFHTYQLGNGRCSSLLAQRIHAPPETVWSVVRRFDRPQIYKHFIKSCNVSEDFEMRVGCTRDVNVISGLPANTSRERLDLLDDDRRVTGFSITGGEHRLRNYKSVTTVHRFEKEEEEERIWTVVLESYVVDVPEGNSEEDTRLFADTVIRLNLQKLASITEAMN; partner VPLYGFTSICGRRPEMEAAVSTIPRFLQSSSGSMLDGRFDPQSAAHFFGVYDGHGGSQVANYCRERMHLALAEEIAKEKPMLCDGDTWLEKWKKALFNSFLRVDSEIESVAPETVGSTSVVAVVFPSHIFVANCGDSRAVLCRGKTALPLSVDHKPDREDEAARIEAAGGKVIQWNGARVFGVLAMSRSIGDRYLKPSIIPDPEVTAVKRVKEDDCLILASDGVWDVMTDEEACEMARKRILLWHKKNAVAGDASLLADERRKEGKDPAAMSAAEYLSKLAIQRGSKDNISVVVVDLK
| Substitution | relative binding score |
| --- | --- |
| G21Y | 1.92% |
| R90K | 0.118% |
| R155E | -6.92% |
| F66H | 1.19% |
| R163W | -2.5% |
| N149P | 0.156% |
| T101R | -7.12% |
| R123V | -4.22% |
| S59K | 0.381% |
| T160P | -0.626% |
| G107E | 14% |
| P50Y | -9.17% |
| H34M | 45.7% |
| L166H | 3.06% |
| P83K | 15.4% |
| T120I | -8.42% |

Series 2
Target: Prothrombin, mature alpha-thrombin (F2, Homo sapiens, UniProt P00734)
Technique: aptamer microarray, sandwich
Form: DNA with 2'F-ANA
Matrix: in vitro
Tested at: 200 nM
Setting: whole 15-mer aptamer, many near background
Together with: Cy3 exosite-II aptamer, 400 nM
Direction: higher = stronger binding
Strand: GGTTGGTGTGGTTGG
| Modification | mean fluorescence intensity |
| --- | --- |
| 2'F-ANA at 2 3 4 5 6 8 9 10 11 12 14 15 | 55.1 a.u. |
| 2'F-ANA at 1 2 3 4 5 6 8 9 11 12 13 15 | 103 a.u. |
| 2'F-ANA at 1 5 7 9 10 12 15 | 201 a.u. |
| 2'F-ANA at 1 4 5 6 9 10 11 13 14 | 76.9 a.u. |
| 2'F-ANA at 2 3 4 6 8 14 | 290 a.u. |
| 2'F-ANA at 1 3 7 | 374 a.u. |
| 2'F-ANA at 1 5 7 9 11 12 15 | 87.4 a.u. |
| 2'F-ANA at 2 3 9 10 12 13 14 | 317 a.u. |
| 2'F-ANA at 2 4 5 6 7 9 10 13 14 | 45 a.u. |
| 2'F-ANA at 1 2 3 5 6 7 8 9 11 12 14 15 | 50.8 a.u. |
| 2'F-ANA at 1 2 5 9 10 12 13 14 | 68.2 a.u. |
| 2'F-ANA at 1 2 3 5 10 13 14 | 47.9 a.u. |
| 2'F-ANA at 1 3 4 5 6 8 9 10 13 14 15 | 52.4 a.u. |
| 2'F-ANA at 3 4 8 10 13 15 | 238 a.u. |
| 2'F-ANA at 4 5 6 7 9 12 13 14 15 | 51 a.u. |
| 2'F-ANA at 1 2 4 5 8 10 12 13 14 15 | 48.3 a.u. |
| 2'F-ANA at 1 4 5 6 10 11 13 15 | 52.3 a.u. |
| 2'F-ANA at 1 3 4 6 7 8 9 11 12 13 15 | 217 a.u. |
| 2'F-ANA at 1 2 4 5 7 8 9 10 13 14 | 79.7 a.u. |

Series 3
Target: Interferon regulatory factor 3, full length, phosphomimetic (IRF3, Homo sapiens, UniProt Q14653, residues 1-427, S386D/S396D/S398D/S402D/T404D/S405D)
Technique: protein-binding microarray
Form: double-stranded DNA, one strand shown
Matrix: in vitro
Tested at: 2540 nM top
Setting: 60-bp whole probe
Together with: salmon DNA 0.4 mg/ml
Reference: random background probes
Direction: higher = stronger binding
All sequences stand within: GCCTAGCAC … GTCTTGATTCGCTTGACGCTGCTG
Target sequence (chain): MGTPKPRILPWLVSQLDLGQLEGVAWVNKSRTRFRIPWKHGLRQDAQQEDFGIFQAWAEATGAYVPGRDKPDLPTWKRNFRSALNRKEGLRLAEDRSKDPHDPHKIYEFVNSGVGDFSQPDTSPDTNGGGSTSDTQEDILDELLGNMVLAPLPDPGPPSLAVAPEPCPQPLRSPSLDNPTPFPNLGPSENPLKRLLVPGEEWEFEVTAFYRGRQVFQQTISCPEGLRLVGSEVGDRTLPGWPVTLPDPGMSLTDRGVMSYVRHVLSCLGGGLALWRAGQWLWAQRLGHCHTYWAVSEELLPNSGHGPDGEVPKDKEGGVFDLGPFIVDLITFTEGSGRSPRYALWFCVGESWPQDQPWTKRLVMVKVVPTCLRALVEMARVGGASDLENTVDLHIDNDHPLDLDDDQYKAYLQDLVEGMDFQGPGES
| Strand | fitted relative affinity |
| --- | --- |
| GTGAGTTTGACATCTTCATCAGTGCTA | -0.349 z-score |
| TGTTGTCTTAGATTCCTTTGGTGCTAG | 0.787 z-score |
| TTAGATATCGGGTATAGATTAGTGCTA | -0.1 z-score |
| TCATTAATGCTTCTGGGACTGTGCTAG | -0.0887 z-score |
| TCACATTTTTTTATCAAACTGTGCTAG | 0.775 z-score |
| TCAGAACTGAGTATCGATTAGTGCTAG | 0.643 z-score |
| GACGATTTCGGTACTGGAGACGTGCTA | 4.05 z-score |
| GACGATATCAGTCTCGAGACGTGCTAG | 1.08 z-score |
| ACTCATTTTCATTTTGTGTCGTGCTAG | 2.85 z-score |
| TTAGGACTGCTTTTCCTCTAGTGCTAG | 0.2 z-score |
| GATCCTTCCCCTCTAGGTTCGTGCTAG | 2.19 z-score |
| GTAGGTTTCCTTCTCCTTTAGTGCTAG | 9.89 z-score |
| TTAGGTATCCTTTTCCTCTAGTGCTAG | 7.99 z-score |
| GACGAACTGGGGACTTGAGACGTGCTA | -0.385 z-score |
| TCAGGTCTCGGTTTCGGTTAGTGCTAG | 5.5 z-score |
| GCCGATTTCAGTCTCGAGACGTGCTAG | 2.93 z-score |

Series 4
Target: CCNE2, cyclin fold, Cln2 fusion (human)
Technique: yeast growth competition, sequencing
Matrix: yeast
Setting: weak parent motif
Reference: not given
Direction: higher = stronger binding
Starting sequence: CENPC docking peptide (human); VKTKKRLNFDDKV; partner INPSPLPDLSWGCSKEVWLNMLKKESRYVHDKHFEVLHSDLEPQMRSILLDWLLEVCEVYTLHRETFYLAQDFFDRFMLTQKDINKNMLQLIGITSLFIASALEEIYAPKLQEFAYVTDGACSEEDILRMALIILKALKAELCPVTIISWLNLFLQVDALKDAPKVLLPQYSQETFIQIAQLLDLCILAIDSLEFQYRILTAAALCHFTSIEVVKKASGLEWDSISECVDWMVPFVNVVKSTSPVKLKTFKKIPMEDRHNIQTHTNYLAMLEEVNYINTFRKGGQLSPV
| Substitution | normalised enrichment score |
| --- | --- |
| F9A | 0.359 |
| D10A | -0.0151 |
| K4A | 0.59 |
| K5A L7A | 0.359 |
| L7A | 0.54 |
| N8A | 0.468 |
| K2A | 0.347 |
| K5R | 3.56 |
| R6A | 0.887 |
| K5R F9L | 0.444 |

Series 5
Target: RNA binding protein fox-1 homolog 2, RRM domain, GST-SBP tag (RBFOX2, Homo sapiens, UniProt O43251-10, residues 100-194)
Technique: RNA Bind-n-Seq
Form: RNA
Matrix: in vitro
Tested at: 365 nM
Setting: natural RNA segment, single round, ends assumed
Reference: no-protein control
Direction: higher = stronger binding
Construct (chain): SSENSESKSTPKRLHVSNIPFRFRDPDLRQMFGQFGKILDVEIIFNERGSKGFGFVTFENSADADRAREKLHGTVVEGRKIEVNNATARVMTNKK
| Strand | RBNS enrichment (R) |
| --- | --- |
| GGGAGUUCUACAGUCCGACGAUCGCAGAUAAGUCUUGGAGUGAAACAAAUAAAUAGCAUUGUAUUCCUGGCCAUUUGCCUGGCUAGUUGCUGUCUACAAGGGAGCAUCAAAACAUCACUACUUCUUAUGUAACUGGAAUUCUCGGGUGCCAA | 0.501 |
| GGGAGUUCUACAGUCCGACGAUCCUGUGGCUACUUCGUGGUCAGAGUGAGCCCCUUGCAGAAUCCCCACUCCAGCAAACAAAGCAACGGCCCUGCUGGGAUUGUCGAAUCUCCCUUGAGGGUUUCAGGGACCUUGGAAUUCUCGGGUGCCAA | 0.187 |
| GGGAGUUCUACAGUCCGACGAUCCCCUACAGUAAAUAAACCAGCAUCGUGCCGCCCAAAGCCGCCUCUGCUUAGUUGCCAAACAAGGGGUCUUCCACCCCCUAUUCUACUGAUUUCUGGACCCAGGGAAGGGAUGGAAUUCUCGGGUGCCAA | 0.29 |
| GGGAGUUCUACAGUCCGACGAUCGAGUGUGAAGAUGGUGGUUAGCAGUUUCACUAAGACUGAUAUUUUAGGCCUCUUGUUCACAUCAAAAGAUAUUGGUGUCAGAAUACCAGCAUUUUCCUGCCAUGCAAAGGUGGAAUUCUCGGGUGCCAA | 1.09 |
| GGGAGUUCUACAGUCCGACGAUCUGAGUGGCGGAGGAGCCUCAGCGCACUGAAGGCCCAUGGCGCCCGGGUUGGUUUUUCCUUUCUUCUUCAUCUUCCUUCUUUUUAAAAGUCAACGAGAGCCUUUGCCGACUUGGAAUUCUCGGGUGCCAA | 0.576 |
| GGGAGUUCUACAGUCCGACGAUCAGAUGGGCCCCAGGCUCCUCCAUAUGGCCCAGGGCUUACCACCCUAUCACACGUGGCCUUGUCUAGACCCAGUCCUGAGCAGGGGAGAGGCUCUUGAGACCUGAUGCCCUUGGAAUUCUCGGGUGCCAA | 0.239 |
| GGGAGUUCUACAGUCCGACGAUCUAUUUUUAUAUUUUGCCAUUUUACAGUACUGUUUUGUUUUGAAUUCAUGCAUAUCAUUGAAAAUUUCUCGUUUUCAUUUUCUUAGAUGACUUCUUGUCUGAGACAGAAAAUGGAAUUCUCGGGUGCCAA | 2.18 |
| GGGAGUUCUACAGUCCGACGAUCUGAACAAAUACUUUUGAAAAGAAAAGUUUGUUGUAUAGUCAAAAGAAAACGGUGUCAGCGGCCGAGACAAAUUCUGGUAGGUUCUGUGCAUGUGAAGCGGCCGUGAAGGGUGGAAUUCUCGGGUGCCAA | 35.2 |
| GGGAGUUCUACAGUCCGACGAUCAGAAAACACUCUUCUCAGGAGUAGGAGAGCCUGGAGGGCUGUCAGCACCACAGUGACCUAAGCGGCUCACUUCUGAGCCUCCUCUUCAGUUUCCUGGGGGGGGGGGGGUUUGGAAUUCUCGGGUGCCAA | 0.409 |
| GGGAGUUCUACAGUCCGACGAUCUAUUUUUCCCCUUAAAAUAGGAGAGAGCCAAAAUUGACCAAGGGUAUUCUGCAGCGAACCGGAGACCAAAGAGUUACCCCUACCCCUACCCCAUUCCACCCUCUCUGGGAUGGAAUUCUCGGGUGCCAA | 0.294 |
| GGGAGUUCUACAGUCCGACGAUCCUUCAUUGGCCUAGAUUUUGCGGCAGAUUAGACCUUUUGAAGGUUCUCCACCAUUUUCGUACGUCUCCUGUCCUGGUUUUUUCUUCUGCACUCUUGGAGAGAUUUAGAUGUGGAAUUCUCGGGUGCCAA | 2.78 |
| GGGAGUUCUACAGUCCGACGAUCUCUACCUUUCAUAUAAUGCUACAUUGAAGGCACAGAAUUUGCUACCAUCUCUCUCUCCCCCUACCUACCAAACUAUCCACAAUUUAAAUAAAGAACUGCUGUGUCUGACUUGGAAUUCUCGGGUGCCAA | 2.53 |

Single results of other studies
| Substance | target | test | system | conditions | how to read | measurement | value |
| --- | --- | --- | --- | --- | --- | --- | --- |
| PhoQ, residues 284 288 289 292 302 303 SNGLAW | PhoP, residues 12 14 15 18 19 STWGI (Escherichia coli, UniProt P23836) | Sort-seq, refers to: YFP reporter | E. coli | PhoQ-PhoP variant library, together with: 10 µM Mg2+ | reference: high Mg2+ state, higher = stronger signaling | fold induction | 8.86 |

A few entries again (series 3):
| Strand | fitted relative affinity |
| --- | --- |
| GACGATTTCGGTACTGGAGACGTGCTA | 4.05 z-score |
| GACGATATCAGTCTCGAGACGTGCTAG | 1.08 z-score |
| ACTCATTTTCATTTTGTGTCGTGCTAG | 2.85 z-score |
| TTAGGACTGCTTTTCCTCTAGTGCTAG | 0.2 z-score |
| GATCCTTCCCCTCTAGGTTCGTGCTAG | 2.19 z-score |
| GTAGGTTTCCTTCTCCTTTAGTGCTAG | 9.89 z-score |
| TTAGGTATCCTTTTCCTCTAGTGCTAG | 7.99 z-score |
